Measured values of several laboratories.
A part holds a random share of what one study measured.
Chain of UniProt O15294 (whole entry, looked up): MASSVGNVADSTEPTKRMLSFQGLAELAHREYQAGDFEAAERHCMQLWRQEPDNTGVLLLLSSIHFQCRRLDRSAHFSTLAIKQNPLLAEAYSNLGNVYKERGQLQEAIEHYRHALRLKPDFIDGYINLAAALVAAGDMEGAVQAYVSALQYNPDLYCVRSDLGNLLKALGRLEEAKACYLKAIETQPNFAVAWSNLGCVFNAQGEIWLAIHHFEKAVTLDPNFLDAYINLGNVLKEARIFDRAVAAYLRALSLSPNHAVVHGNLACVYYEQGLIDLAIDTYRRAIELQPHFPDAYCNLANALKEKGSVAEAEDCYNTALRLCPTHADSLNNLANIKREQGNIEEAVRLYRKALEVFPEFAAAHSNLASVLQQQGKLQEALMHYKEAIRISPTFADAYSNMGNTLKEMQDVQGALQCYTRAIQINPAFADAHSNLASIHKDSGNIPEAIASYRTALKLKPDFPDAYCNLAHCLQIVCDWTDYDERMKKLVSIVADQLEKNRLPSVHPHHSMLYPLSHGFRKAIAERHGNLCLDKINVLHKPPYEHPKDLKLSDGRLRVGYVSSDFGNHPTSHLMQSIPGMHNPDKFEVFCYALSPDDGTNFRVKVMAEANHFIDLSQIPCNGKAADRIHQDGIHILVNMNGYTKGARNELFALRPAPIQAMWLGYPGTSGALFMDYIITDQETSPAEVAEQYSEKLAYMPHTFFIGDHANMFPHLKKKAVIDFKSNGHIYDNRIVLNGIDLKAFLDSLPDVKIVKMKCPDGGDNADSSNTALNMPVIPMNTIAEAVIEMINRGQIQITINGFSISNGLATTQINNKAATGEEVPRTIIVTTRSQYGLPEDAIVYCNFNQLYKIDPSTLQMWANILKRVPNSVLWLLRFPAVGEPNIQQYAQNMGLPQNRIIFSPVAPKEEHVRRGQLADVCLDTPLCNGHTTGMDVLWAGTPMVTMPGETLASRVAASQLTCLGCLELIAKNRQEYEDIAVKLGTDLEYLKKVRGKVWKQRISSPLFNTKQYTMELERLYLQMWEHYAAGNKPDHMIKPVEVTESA
Chain of UniProt Q8RYC6 (whole entry, looked up): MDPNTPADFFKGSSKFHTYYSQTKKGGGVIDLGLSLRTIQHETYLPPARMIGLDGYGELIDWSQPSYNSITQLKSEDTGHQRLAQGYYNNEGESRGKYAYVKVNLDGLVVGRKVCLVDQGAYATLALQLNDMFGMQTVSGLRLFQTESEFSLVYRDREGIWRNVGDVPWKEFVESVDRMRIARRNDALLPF
Chain of UniProt Q9ZTX9 (whole entry, looked up): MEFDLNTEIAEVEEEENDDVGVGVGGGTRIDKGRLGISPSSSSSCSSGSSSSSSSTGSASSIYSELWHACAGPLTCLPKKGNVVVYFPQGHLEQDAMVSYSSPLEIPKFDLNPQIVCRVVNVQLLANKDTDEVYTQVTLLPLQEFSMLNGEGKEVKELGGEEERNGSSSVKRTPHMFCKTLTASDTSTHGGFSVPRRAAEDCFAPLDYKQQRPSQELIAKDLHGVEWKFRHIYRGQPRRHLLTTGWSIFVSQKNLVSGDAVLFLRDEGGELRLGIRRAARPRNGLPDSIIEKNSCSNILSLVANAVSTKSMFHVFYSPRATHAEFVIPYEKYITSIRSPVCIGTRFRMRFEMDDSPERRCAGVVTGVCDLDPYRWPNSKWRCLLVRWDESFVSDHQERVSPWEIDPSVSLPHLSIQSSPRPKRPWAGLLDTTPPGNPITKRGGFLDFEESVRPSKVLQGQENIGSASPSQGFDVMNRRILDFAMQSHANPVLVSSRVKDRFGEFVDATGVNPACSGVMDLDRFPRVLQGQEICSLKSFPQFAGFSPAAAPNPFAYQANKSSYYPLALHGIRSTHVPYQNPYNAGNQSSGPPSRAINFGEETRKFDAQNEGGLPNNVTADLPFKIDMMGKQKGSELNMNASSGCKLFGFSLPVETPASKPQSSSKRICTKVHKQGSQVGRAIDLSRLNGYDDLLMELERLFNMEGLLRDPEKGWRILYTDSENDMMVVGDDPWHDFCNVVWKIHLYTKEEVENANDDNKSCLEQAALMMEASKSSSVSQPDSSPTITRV
Chain of UniProt Q38824 (whole entry, looked up): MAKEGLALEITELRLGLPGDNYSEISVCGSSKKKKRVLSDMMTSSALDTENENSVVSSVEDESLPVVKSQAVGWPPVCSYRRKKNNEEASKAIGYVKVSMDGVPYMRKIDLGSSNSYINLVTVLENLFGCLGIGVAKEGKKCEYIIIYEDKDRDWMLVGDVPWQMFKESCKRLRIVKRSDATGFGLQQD
Chain of UniProt Q9XED8 (whole entry, looked up): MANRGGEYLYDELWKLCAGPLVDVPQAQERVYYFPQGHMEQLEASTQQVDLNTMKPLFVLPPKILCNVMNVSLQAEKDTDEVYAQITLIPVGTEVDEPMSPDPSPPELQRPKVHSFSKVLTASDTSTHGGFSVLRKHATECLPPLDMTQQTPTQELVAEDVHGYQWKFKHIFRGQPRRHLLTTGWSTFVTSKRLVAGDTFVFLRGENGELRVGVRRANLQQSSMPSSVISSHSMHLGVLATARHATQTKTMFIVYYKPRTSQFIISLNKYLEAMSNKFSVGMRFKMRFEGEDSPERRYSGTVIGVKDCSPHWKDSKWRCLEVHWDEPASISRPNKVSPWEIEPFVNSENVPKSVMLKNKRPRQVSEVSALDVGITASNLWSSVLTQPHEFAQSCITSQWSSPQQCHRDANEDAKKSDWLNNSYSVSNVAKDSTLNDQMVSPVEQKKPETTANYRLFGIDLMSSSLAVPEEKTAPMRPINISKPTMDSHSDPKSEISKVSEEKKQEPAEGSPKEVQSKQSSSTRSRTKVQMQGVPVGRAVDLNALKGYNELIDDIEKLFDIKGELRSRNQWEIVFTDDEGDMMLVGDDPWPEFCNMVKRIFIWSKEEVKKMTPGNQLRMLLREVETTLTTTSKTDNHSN

Series 1
Sequence: B1 (IAA2)
Technique: two-hybrid
Reading: higher = firmer interaction
B1: IAA2 (Arabidopsis thaliana, UniProt P49678); chain MAYEKVNELNLKDTELCLGLPGRTEKIKEEQEVSCVKSNNKRLFEETRDEEESTPPTKTQIVGWPPVRSSRKNNNSVSYVKVSMDGAPYLRKIDLKTYKNYPELLKALENMFKVMIGEYCEREGYKGSGFVPTYEDKDGDWMLVGDVPWDMFSSSCKRLRIMKGSDAPALDSSL
The positive tests was 4 (IAA4 (Arabidopsis thaliana, UniProt P33077); relative to: out of 4 tests).
The positive tests was 4 (IAA3 (Arabidopsis thaliana, UniProt Q38822); relative to: out of 4 tests).
The positive tests was 0 (ARF4 660-788 (Arabidopsis thaliana, UniProt Q9ZTX9); relative to: out of 4 tests).
It gave 1 for positive tests (IAA6 (Arabidopsis thaliana, UniProt Q38824); relative to: out of 4 tests).
The positive tests was 2 (ARF9 519-638 (Arabidopsis thaliana, UniProt Q9XED8); weak activation fusion; relative to: out of 2 tests).
IAA32 (Arabidopsis thaliana, UniProt Q8RYC6); relative to: out of 4 tests — positive tests: 0.

Series 2
Target: RNA binding protein fox-1 homolog 2, RRM domain, GST-SBP tag (RBFOX2, Homo sapiens, UniProt O43251-10, residues 100-194)
Technique: RNA Bind-n-Seq
Molecule type: RNA
Medium: in vitro
Concentration: 365 nM
Setting: natural RNA segment, single round, ends assumed
Relative to: no-protein control
Reading: higher = stronger binding
Constant ends, left off below: GGGAGUUCUACAGUCCGACGAUC … UGGAAUUCUCGGGUGCCAA
`UCCCUCCCCACCACCAUUCCUUGCUUCCUGCCCAGCCCGCUUCACUUCUCCCGGGACCAUCCUGAUAUGGCGGUUCAUUCAGAAUGACCUGGAGGGGAAGGUGGGUGGGC` — result for “RBNS enrichment (R)”: 0.435.
`UAAUUCCCAGCACCACGAAAUUGUUAUACAUACAUCCCUACCAGUCACAUUCCCUGUGUUCAGAGCCUGGAAAUGAAAUUGAGUUCAGUUCAGCCUCUCUGUAAUGAAUC` — result for “RBNS enrichment (R)”: 0.727.
`UCUGCCAAAAUACUUGAACACUGUGUUUUAUUGUGGUAAUUAUGUUUUGUGACUCAAACUUCUGUGCUGGGUGAAGUACCCAUUGUGAUUGUGGAAGCUAGAAUUCAAUU` — result for “RBNS enrichment (R)”: 1.47.
`GUGGGUGGGUGAAUGGCAGGCUUCUGUAGGAACUUGUGUAAUUAUGCCAUUUUUAUAUUCCUAAUAAAUGGCAAAGAGACAAGAAUAGGACCUUGGAUGGAAAUUCCCUG`: “RBNS enrichment (R)” 1.1.
Under “RBNS enrichment (R)”, `GUGAUUGUGACCCAUGAGUGGAGGAACUUUCAGUUCUAAAGCUGAUAAAGUGUGUAGCCAGAAGAGUACUUUUUUUUUUGUAACCACUGUCUUGAUGGCAAAAUAAUUAU` is recorded as 0.641.
For `ACUUGCUGAUUUUCUGGUUGGAGUGUUUUUUUGUAUUGCCAUAGUCCCUUCCCCCUGAAGCAAUAGCCCCUCCCCACCUCCUGCAAUACGCCUUUCCAAUCUUUAUUGGA`, “RBNS enrichment (R)” read 0.461.
`CUUCCCCUCUCCCUACAAAUGGAACCUUGUGGAAACAGGAUGCUAAACACCUUCUGAUGGAGCUGUUGCCUGCAGGCCACUGGUCUUUGGGAAUUUUCAAUAAAGUGCUU`: “RBNS enrichment (R)” 0.722.
`AGCAAAACAAAAACAAAAACAAAAACCCUACCAGAAACCAGAAGUAGAGAGAUUUACCAUAUAACUUAUGGACUUUGAAAUGUCUGUCCUUUUAAGGCAGCAGGGAGGCC`: “RBNS enrichment (R)” 0.613.

Series 3
Target: RING finger protein unkempt homolog, zinc fingers 1-6, SBP tag (UNK, Homo sapiens, UniProt Q9C0B0, residues 30-357)
Chain of UniProt Q9C0B0 (30-357, looked up): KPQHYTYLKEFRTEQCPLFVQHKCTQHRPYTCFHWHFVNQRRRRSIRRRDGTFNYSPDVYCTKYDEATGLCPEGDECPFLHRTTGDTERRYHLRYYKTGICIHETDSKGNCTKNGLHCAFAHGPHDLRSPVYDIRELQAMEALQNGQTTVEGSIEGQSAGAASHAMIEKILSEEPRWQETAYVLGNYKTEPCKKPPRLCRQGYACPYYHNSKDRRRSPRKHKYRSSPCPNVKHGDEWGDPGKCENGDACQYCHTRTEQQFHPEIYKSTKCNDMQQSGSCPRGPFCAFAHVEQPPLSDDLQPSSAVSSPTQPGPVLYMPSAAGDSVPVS
Technique: RNA Bind-n-Seq
Molecule type: RNA
Medium: in vitro
Concentration: 100 nM
Setting: RNA with constant flanks, vertebrate orthologous sites, ends assumed
Relative to: input RNA pool
Reading: higher = stronger binding
Constant ends, left off below: GGGAGUUCUACAGUCCGACGAUC … CAACAGAGGAUUGAGCAUCA
`AUCACUCUAAUAAUUGUAAUCUGAAUAAAGUGUAACAUUGUGUAGCCUUUUUGUAUAAAAUAGACAAAUAGAAAAUGGUCCAAUUAGUUUCCUUUUUAAUAUGCUUAAAAUAAGCAGGUG` has a bound/input enrichment of 0.923 ratio.
With `CCGAAAGGCCAAAUUCCCUCCUCCCUUCUACUGCUUCUACCAACUGGAAGCACAGAAAACUAGAAUUUCAUUUAUUUUGUUUUUUAAAAAUAUACGUUGAUUUCUUGUAACAUCCAAUAG` the bound/input enrichment was 0.653 ratio.
With `UGAACUUUUAGCUUUCAAGUUGUGGCUGUUUUUUGUUUUUGUUUUUGUUUUUGUUUUCUUUAGAAUUUUUCCCUGUUUCCCACCUUCUCUUCCCCUGUUGCCAAGGUCUAACUCAUGGAU` the bound/input enrichment was 2 ratio.
`GUAUCAGUCUCAUACCAGCAUUUAAUCUCUUGUCUGUGCACAGCUUCAAAUGUUACCGUCUAGUUAGAUUUUUAUUUAAAAUAUGAAAAACUGCUUUUCCCAAGACGUUUUUUAAAAUAC` has a bound/input enrichment of 1.82 ratio.
The bound/input enrichment of `AACUAAAGGAGUUAGCAUCUUUAUUUUUAUAUCAAAGAUAAAGGUUAUUUUGGAAAUUAUUAGGGUUUUUACAUAACUCUGAAGUCUGUUGCUUUUGUAAACAAAUCGUUCAAUCUUAGG` is reported as 0.341 ratio.
`UAUAUGCUUUGUUUAAAAUUAUUUAGAUAAGAAAUUAUUGCUGUUUACACGUGUUUUCAAAAUGGCUAUCCUAUUUUUUUAAUCCAUUUUGCAAAUAUUAGAUGUGUGUGUUUUCUUAAC` gave a bound/input enrichment of 0.466 ratio.
With `UCAGUCCCCUGGGCUGGGACGGAUUUUUUUUAACGUCUUGAAACUUAAAUUCUGUGCUUGUAGGAGACUGUAACCUUUUUGUCUUUUUUUUUUUUUUUUAACAAAACAACCUCCACCUCC` the bound/input enrichment was 0.91 ratio.
`AUUAAAUGCGUAUCAAAUGCUGGAUAUCCCAUUAAACCAUCAUUUAGGAUAGAUGUUAGUUUAUUGUAAUUAAGCUACAAAUAGGUUUCCUUAAACCAGAAAUGCACUGCCCUUGUCCGA` has a bound/input enrichment of 0.475 ratio.

Other studies, line by line
`HYDHQHRFPQLAKSA`: “enrichment fold change” 4.06 (UDP-N-acetylglucosamine--peptide N-acetylglucosaminyltransferase 110 kDa subunit (OGT, Homo sapiens, UniProt O15294); binding, phage display NGS; peptide; concentration not given, panning round 2; relative to: input library).

Excerpt of the above (series 2):
`GUGGGUGGGUGAAUGGCAGGCUUCUGUAGGAACUUGUGUAAUUAUGCCAUUUUUAUAUUCCUAAUAAAUGGCAAAGAGACAAGAAUAGGACCUUGGAUGGAAAUUCCCUG`: “RBNS enrichment (R)” 1.1.
For `ACUUGCUGAUUUUCUGGUUGGAGUGUUUUUUUGUAUUGCCAUAGUCCCUUCCCCCUGAAGCAAUAGCCCCUCCCCACCUCCUGCAAUACGCCUUUCCAAUCUUUAUUGGA`, “RBNS enrichment (R)” read 0.461.
